Experimental data collected from several papers.
Each numbered part is a random draw from the data of one study; scales do not carry over between parts.

Series 1 — technique: protein binding microarray; molecule type: double-stranded DNA, one strand shown; sample: in vitro; concentration: not given; relative to: not given; direction: higher = stronger binding
Target: Histone acetyltransferase KAT6A, winged helix 1, GST fusion (KAT6A, Homo sapiens, UniProt Q92794, residues 1-85)
Notes: 8-mer, flanks averaged, mean of 2 arrays, mostly near background
Construct (chain): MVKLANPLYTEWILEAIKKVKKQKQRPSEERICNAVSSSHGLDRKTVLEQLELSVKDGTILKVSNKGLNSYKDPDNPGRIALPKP
Oligonucleotide	E-score
CAGGCCTA	-0.162
GAAGCGCA	0.308
CAGTATGG	-0.214
CGCGGTAC	0.449
AGCATGAG	-0.242
TCGAGCCA	-0.166
ACGTTCGC	0.0542
GGCCCGTA	0.281
TGATGGAA	-0.217
CTGCTCAA	-0.264
AAATTAAA	-0.0726
GCTGAACC	0.00899
CGGGACAA	0.263
CTAGTGAG	-0.014
ACAAATTA	0.0473
CCTAGCCA	-0.283
ACTCGTAA	0.0841
GGCGCGGA	0.375
AAGTGGGT	-0.0993
AAGGAGAC	-0.146
GGCGGCGA	0.422
CACATCTG	-0.192
TCTTCACA	-0.305
AGTCTTTC	-0.136

Series 2 — technique: RNA Bind-n-Seq; molecule type: RNA; sample: in vitro; concentration: 100 nM; relative to: input RNA pool; direction: higher = stronger binding
Target: RING finger protein unkempt homolog, zinc fingers 1-6, SBP tag (UNK, Homo sapiens, UniProt Q9C0B0, residues 30-357)
Sequence of UniProt Q9C0B0 (30-357, looked up): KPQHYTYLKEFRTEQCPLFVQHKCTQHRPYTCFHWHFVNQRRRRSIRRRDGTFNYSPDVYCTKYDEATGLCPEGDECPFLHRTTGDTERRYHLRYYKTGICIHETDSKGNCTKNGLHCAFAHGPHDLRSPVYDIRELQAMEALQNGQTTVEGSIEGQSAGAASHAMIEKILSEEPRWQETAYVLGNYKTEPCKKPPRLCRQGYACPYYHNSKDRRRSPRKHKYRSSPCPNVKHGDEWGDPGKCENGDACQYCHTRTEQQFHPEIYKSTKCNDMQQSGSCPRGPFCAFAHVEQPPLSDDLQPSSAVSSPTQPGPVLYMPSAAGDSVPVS
Notes: RNA with constant flanks, vertebrate orthologous sites, ends assumed
Shared flanks, not repeated: GGGAGUUCUACAGUCCGACGAUC … CAACAGAGGAUUGAGCAUCA
Oligonucleotide	bound/input enrichment
GGUUUUUAAAAAUUUAUUGAGCAUAUAGCUUUGUGCUAAAGAUUGUGUUAGAUUUAAAAAUCCACAGAUUGGUUCUUCGUUGUUUUCAUUUUUGAAAAUAAAUAAAACUUUGAAUCUCAU	0.181 ratio
UCCCCUCCCCUUAUGACAGGGAGUGGGGGGAGCUCAGGAUGACCCUCAACUGUUCCAAUCCAGUAUUUUUUUUUUCUUUUUAAAAGUUACUGUAUUUAUUAUGACGACGGUGACUCCCCG	0.609 ratio
GUGCAAGGAAAUUAUUCCAACUAGUGAAUUUAUUAACAGUAAGUUAACAGCAAAAGCCAAUAGGCAACUUCAAGAUCCUUUAGUAAUCAUGACAGGAAACAUCCCAACGUGGCUUACUGA	1.13 ratio
AAGACUUUGUGUGCCAGAUUACCCCAAAAAACAUAAAGCUACUUUUUUUACUUGCAUAUUUUUCAAAGUACCUGAAAAAUGGUUUUUCUCCUUUCUAAUGGUCAAAAGAAGGUACAUUUC	0.4 ratio
UUGGGACCAACUCUCCAAAUAGGAAUAGUAGUAAAAAAACCAAGCAAAAUGAUACUUGUAUUGAAAAAACAGAUGUUAAAUCAUGUAAAGUAAAUGCUGCCAAUGUUCUAGGCCCUAAAG	1 ratio
AAUCAGUAGAACUACAUAAUACUAAAGUUGCAGUUGAAAGGAUAUCCAAGUAUGUGUUGGUAGUUACUAAAAGAAUUAUAGCUGUUAUUGCCUUGUAUUUAUAGCCCUGUUUCAGGUUUC	0.765 ratio
AGCAAGUCAAGGCUUCAGGACUGGUUUUACAAAUAUACCAAGUAGAUAUGGAACUAACAAUAGAAUUGGACAACCAAGACCAUGAUGUACUCUAACUUAAUUUAUUAUUUUUUUUCAGGA	1.69 ratio
AUCCCUCAGUGACAGUAUGCCUUCUGUAGCAGAUUCCCACUCUAGUCAUUUUUCUGAAUUUAGUUGUUCUGACCUAGAAAGCAUGAAAACUUCCUGUAGUCAUGGUUCCAGUGAUUAUCA	3.6 ratio
CUGUUGUGUGAAACAUGUCUACCCAGAAAAGUAAUAUUCUAUAAAUACUAUUAAAAAACUUAGCUAUAUUAUUUUUAAGCAUUAAAUUAUACGUCAAGGAGUUAAAGUGAAUUUCAGAGU	0.663 ratio
CUCUCUGAGCGAUAGCAUCCCGUCUGUAGCAGAUUCCCACUCAAGUCAUUUUUCAGAGUUUAGUUGCUCUGAUAUGGAAAGUAUGAAAACGUCCUGUAGCCAUGGUUCCAAUGAUUACCA	0.344 ratio
GUCUUCUGGUACCACUCGAUGUACCAAUACUCAUCCUUUUUUCAUUAUACCAACUAUCGCUAGAAGUAGGAGUUCAAUAUUUUUAAAAGUUUUACAUUGCUGUAUAUUCAAAAUUUUCAA	1.39 ratio

Series 3 — technique: RNA Bind-n-Seq; molecule type: RNA; sample: in vitro; concentration: 1 µM; notes: whole 134-nt RNA, ends assumed; with: 150 mM KCl; relative to: input library; direction: higher = stronger binding
Target: Ras GTPase-activating protein-binding protein 1, RRM domain (G3BP1, Homo sapiens, UniProt Q13283)
Sequence of UniProt Q13283 (whole entry, looked up): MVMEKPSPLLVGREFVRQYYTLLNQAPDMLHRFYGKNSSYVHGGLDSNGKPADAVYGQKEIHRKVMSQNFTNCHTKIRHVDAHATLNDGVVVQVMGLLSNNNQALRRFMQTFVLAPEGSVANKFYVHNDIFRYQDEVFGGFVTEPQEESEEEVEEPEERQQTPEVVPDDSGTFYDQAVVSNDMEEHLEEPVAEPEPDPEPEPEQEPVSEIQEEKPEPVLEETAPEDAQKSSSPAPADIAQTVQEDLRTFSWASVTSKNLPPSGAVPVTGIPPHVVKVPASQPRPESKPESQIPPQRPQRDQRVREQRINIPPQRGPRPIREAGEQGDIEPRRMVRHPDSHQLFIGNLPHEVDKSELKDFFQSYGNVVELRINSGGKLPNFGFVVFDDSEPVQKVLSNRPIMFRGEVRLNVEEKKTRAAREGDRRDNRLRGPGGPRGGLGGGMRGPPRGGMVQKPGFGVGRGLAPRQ
Shared flanks, not repeated: GGGAGUUCUACAGUCCGACGAUC … UGGAAUUCUCGGGUGUCAAGG
Oligonucleotide	log2 enrichment
ACCAUGCAGGUGGGCAUCUUUGGGAACUGGGGCAAGGGGGGGAUAGGGAGGGGGGUAACACUUUGGGAACAGGUGGUCCCAGGUCGUUUC	-0.621
GUCCUGUGCUACACAUCGUAUGUACCGAAUCGGGGUUUGGGGUUUGGGGUUUUUGGGGAAAGUAUUAUGUUACGCCGUUCGGAUCUGCAC	2.18
GUCCUGUGCUACACAUCGUAUGUACCGAAUCGGGGUUUUUUGGUUUUUUGGUUUUUUGGAAAGUAUUAUGUUACGCCGUUCGGAUCUGCA	-0.198
CUCAAGUCCUGUGCUACACAUCGUAUGUACCGAAUCGGUUUUUGGUUUGGUGGAAAGUAUUAUGUUACGCCGUUCGGAUCUGCACUUCCA	-0.326
UCAAGUCCUGUGCUACACAUCGUAUGUACCGAAUCGGAAGGGGAAGGGGAAGGGAAAGUAUUAUGUUACGCCGUUCGGAUCUGCACUUCC	0.758
AAGUCCUGUGCUACACAUCGUAUGUACCGAAUCGGUUUUGGGGUUUUGGGGUUUUGGAAAGUAUUAUGUUACGCCGUUCGGAUCUGCACU	-0.133
AAGUCCUGUGCUACACAUCGUAUGUACCGAAUCGGCCCCGGGGCCCCGGCCCCGGGGAAAGUAUUAUGUUACGCCGUUCGGAUCUGCACU	-1.12
AGUCCUGUGCUACACAUCGUAUGUACCGAAUCGGGGUUUGGGGAGGGGAAAAAGGGGAAAGUAUUAUGUUACGCCGUUCGGAUCUGCACU	0.991
UGUCCUGUGCUUUCACAUUCUUUCUGCAUGGAGAAAGUAAUGUAUGCACAAGUGUGGAGAUUGCCCAGCACCAGCCAAUUUAUUUGAUCA	-0.05
UGGGAGGUGGAUUUUGUUUAUUUUUUUAGCUUAUUUCCAGGGGUGGGAAUUUUUUUUUAAUAUGUGUCAUGAAUAAAGUUGUUUUUGAAA	1.96

Series 4 — technique: universal PBM; molecule type: double-stranded DNA, one strand shown; sample: in vitro; concentration: 600 nM; direction: higher = stronger binding
Target: Sal-like protein 4, full length isoform A (SALL4, Homo sapiens, UniProt Q9UJQ4, residues 1-1053)
Sequence of UniProt Q9UJQ4 (whole entry, looked up): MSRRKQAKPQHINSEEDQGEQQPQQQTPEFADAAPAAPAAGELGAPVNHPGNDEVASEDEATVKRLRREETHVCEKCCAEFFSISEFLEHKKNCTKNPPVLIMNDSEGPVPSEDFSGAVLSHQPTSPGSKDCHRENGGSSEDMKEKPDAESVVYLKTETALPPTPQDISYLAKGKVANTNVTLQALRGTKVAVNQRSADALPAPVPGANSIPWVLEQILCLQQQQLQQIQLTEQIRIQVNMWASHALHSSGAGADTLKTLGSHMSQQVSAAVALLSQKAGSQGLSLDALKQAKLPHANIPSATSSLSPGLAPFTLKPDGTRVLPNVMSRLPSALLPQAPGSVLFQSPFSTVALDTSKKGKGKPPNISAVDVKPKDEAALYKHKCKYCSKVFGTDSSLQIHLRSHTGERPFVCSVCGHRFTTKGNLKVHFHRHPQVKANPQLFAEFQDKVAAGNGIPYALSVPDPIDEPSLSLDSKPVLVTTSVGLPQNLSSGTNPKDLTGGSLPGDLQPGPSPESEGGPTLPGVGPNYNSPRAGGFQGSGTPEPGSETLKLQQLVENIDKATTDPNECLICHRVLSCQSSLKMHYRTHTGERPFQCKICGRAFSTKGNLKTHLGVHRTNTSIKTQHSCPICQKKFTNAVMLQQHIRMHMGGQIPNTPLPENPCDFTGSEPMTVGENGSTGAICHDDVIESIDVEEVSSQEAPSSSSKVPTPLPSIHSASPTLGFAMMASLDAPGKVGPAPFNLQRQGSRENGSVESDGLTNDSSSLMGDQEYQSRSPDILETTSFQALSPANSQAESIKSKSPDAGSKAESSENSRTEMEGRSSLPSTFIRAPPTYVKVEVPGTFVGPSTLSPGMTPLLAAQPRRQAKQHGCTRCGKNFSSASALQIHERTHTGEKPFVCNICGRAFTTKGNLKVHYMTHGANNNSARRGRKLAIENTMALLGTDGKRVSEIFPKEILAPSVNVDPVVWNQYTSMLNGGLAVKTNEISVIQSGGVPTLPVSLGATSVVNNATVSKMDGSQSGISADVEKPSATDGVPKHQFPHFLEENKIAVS
Notes: 8-mer, flanks averaged, mean of replicates
Oligonucleotide	E-score
CGCCAGTC	-0.247
GGTGTTCA	-0.0112
AAGGGATC	-0.108
GCTCACAA	0.0249
CGCGCCCC	-0.339
ACAAGTTA	0.178
ACGTTAAG	-0.0325
GCGTGCCA	-0.339
GTGCGCGA	-0.196
ATACAGTC	0.0966
ATTCATGC	0.0721
AAAGTCTG	0.0915
CTTCCTGC	-0.198
GGAGACAA	0.00711
AAGTACCC	-0.23
CGGCTGGC	-0.38
CCGACAAC	-0.137
TCGTAAGA	-0.0332
GGAGATAC	-0.227
CCTAAACC	-0.115
ACAGCGGA	-0.13
CCGTTCCA	-0.0234
AGCATCCG	-0.247
CTCACAAC	0.0437
ACGCTTCG	-0.159

Excerpt of the above (series 4):
Oligonucleotide	E-score
CGCGCCCC	-0.339
GGAGATAC	-0.227
ACGTTAAG	-0.0325
ATACAGTC	0.0966
CCTAAACC	-0.115
GGAGACAA	0.00711
ACAAGTTA	0.178
CTTCCTGC	-0.198
GCTCACAA	0.0249
AAGGGATC	-0.108
